Measured values from different studies.
Every numbered part comes from another study and shows a few of its results, in no order. Changes are numbered by the printed parent chain.

Sample 1
Target: CCND3, cyclin fold, Cln2 fusion (human)
Technique: yeast growth competition, sequencing
Matrix: yeast
Setting: weak parent motif
Reference: not given
Reading: higher = stronger binding
Measurement: normalised enrichment score
Starting sequence: REPIN1 docking peptide (human); QSFRGWVALVLHL
Variant = QSFRGWVALALHL [V10A]; result = -0.571
Variant = QSFRGWVALVLAL [H12A]; result = 0.277
Variant = QSFRGWVAAVLHL [L9A]; result = -0.417
Variant = QSARGWVALVLHL [F3A]; result = 0.0646
Variant = QSFAGWVALVLHL [R4A]; result = -0.066
Variant = QSFRGWVALVLHA [L13A]; result = -0.161

Sample 2
Target: Phosphate system positive regulatory protein PHO4, full length, GST-tagged (PHO4, Saccharomyces cerevisiae, UniProt P07270, residues 1-312)
Technique: competition protein-binding microarray
Molecule type: double-stranded DNA, one strand shown
Matrix: in vitro
Tested at: 2 µM
Setting: whole 60-bp probe, lowest competitor level
Added: Cbf1 competitor, 0.05 µM
Reading: higher = stronger binding
Measurement: fluorescence intensity
All sequences stand within: … GTCTTGATTCGCTTGACGCTGCTG
Construct (chain): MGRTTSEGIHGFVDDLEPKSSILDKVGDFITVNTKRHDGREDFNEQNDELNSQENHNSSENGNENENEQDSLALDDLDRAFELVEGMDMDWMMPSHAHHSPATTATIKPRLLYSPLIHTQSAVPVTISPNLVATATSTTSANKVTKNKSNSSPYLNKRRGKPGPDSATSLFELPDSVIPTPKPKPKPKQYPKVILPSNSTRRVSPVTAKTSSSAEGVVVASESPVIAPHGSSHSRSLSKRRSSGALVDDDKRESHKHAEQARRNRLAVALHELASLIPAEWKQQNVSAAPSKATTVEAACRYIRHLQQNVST
Strand = CATACCCAACCTTGTAAAGTGGGTGAAGATATTTGT; result = 4110 a.u.
Strand = ATGAACCATGCCCAACACGATGTCGTTATTCACTCT; result = 10600 a.u.
Strand = CTAACGAAGGTTTGAGATGTGGGTGACAAGCCAAGT; result = 3750 a.u.
Strand = CACCACTTCATTCCACCCGTGGTGACGCTGAGACAA; result = 7490 a.u.
Strand = GTCTTGTCTCATTGGTGCGTGGGTGTCCCCACTTCA; result = 10000 a.u.
Strand = TCGCCTTGTACTTAGCACGTTCTGAGGCATCGCCTA; result = 11700 a.u.
Strand = CAAAAATTAGAAATCAACGTGACGGTCTAGGGCTAC; result = 10400 a.u.
Strand = TCAAACAGCACAGTCTACATGACGCCTGGTGATTTG; result = 5100 a.u.
Strand = CTTCTGTAAATTTGGGCCGTGGGTGGACGCGCCCCG; result = 5330 a.u.
Strand = CAGTAAACAAACTCGCACCGGTCGCCGTTGTTCTTA; result = 3080 a.u.
Strand = AATTTGAATGGTAAGCTCGTGACGGAATTGTGGCTG; result = 8390 a.u.
Strand = AAAGTAACCCACTTTAACGTGACGGAACCTGAGCTG; result = 4960 a.u.
Strand = CCCATTTGGTTCTTGCGCGTGCTAATTCCGAGAGGC; result = 11400 a.u.
Strand = ATAAATCGTTGGAGTGACCTGGCGTTGGGGTAATTC; result = 2980 a.u.
Strand = CTGTTGGGTTTTTCTCTCGAGCAAGCCGTTATAATT; result = 3300 a.u.
Strand = CTAACGAAGGTTTGATAGGTGGGTGACAAGCCAAGT; result = 3610 a.u.
Strand = AAAATGTTAGCCCATCACGATGGAAACTTAACTGCT; result = 5790 a.u.

Sample 3
Target: Histone acetyltransferase KAT6A, both winged helices, GST fusion (KAT6A, Homo sapiens, UniProt Q92794, residues 1-181)
Technique: protein binding microarray
Molecule type: double-stranded DNA, one strand shown
Matrix: in vitro
Tested at: not given
Setting: 8-mer, flanks averaged, mean of 2 arrays, mostly near background
Reference: not given
Reading: higher = stronger binding
Measurement: E-score
Construct (chain): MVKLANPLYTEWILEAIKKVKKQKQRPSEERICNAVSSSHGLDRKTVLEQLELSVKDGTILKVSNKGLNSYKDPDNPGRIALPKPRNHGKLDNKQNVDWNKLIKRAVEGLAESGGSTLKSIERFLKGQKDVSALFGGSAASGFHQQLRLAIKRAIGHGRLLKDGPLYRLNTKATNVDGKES
Strand = TGGTTACA; result = -0.117
Strand = CCAAGATC; result = -0.0234
Strand = AGAGTGCT; result = -0.119
Strand = GTATTCAC; result = 0.123
Strand = ATGCCACC; result = -0.104
Strand = CACTACGC; result = 0.12
Strand = ATGGCGTA; result = 0.1
Strand = CAGTAATC; result = -0.218
Strand = GAATTGCA; result = -0.22
Strand = CGGACATA; result = 0.192
Strand = CACTCTCA; result = -0.0653
Strand = CGTAGAAA; result = 0.0134
Strand = CCACTTTA; result = -0.191
Strand = GCAGCCGC; result = 0.205
Strand = GATGTCAC; result = -0.0555
Strand = AATAATTC; result = 0.102
Strand = CCACGTAG; result = -0.162
Strand = CTTACGTC; result = -0.0751

Sample 4
Target: Sal-like protein 4, full length isoform B (SALL4, Homo sapiens, UniProt Q9UJQ4-2, residues 1-616)
Technique: universal PBM
Molecule type: double-stranded DNA, one strand shown
Matrix: in vitro
Tested at: not given
Setting: 8-mer, flanks averaged, mean of replicates
Reading: higher = stronger binding
Measurement: E-score
Construct (chain): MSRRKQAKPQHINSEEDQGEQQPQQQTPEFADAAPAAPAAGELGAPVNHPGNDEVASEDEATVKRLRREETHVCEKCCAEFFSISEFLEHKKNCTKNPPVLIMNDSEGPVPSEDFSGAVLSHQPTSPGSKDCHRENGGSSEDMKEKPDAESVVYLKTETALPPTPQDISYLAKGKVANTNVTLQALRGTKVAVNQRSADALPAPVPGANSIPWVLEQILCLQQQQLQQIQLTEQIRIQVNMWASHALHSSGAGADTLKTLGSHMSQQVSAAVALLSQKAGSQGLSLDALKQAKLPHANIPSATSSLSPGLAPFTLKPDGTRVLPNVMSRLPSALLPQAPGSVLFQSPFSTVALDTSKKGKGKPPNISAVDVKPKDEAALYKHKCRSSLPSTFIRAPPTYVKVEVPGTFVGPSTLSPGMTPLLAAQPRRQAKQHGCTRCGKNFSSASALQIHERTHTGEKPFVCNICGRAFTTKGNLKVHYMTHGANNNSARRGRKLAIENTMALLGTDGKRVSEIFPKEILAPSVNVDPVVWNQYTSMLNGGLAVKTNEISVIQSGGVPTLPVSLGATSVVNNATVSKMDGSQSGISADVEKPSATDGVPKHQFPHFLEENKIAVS
Strand = ACCATGCC; result = -0.126
Strand = ACAACTTG; result = 0.0327
Strand = CTTGGGCA; result = -0.143
Strand = ATAAGATG; result = 0.178
Strand = GGGGATCA; result = -0.204
Strand = TAGGTCGA; result = 0.0128
Strand = ACGCAACC; result = -0.109
Strand = ACTCTTGC; result = -0.0322
Strand = ACGTTGAC; result = -0.0377
Strand = GCGCGCGA; result = -0.312
Strand = CGGGACCA; result = -0.37
Strand = GTGGGTTA; result = 0.0811
Strand = CTGTGCTC; result = -0.0545
Strand = AGCAAAAG; result = 0.0735
Strand = CGGGTAAG; result = -0.252
Strand = GACCTCAC; result = -0.118
Strand = AATGCCGA; result = -0.0577
Strand = CGGCATCA; result = -0.144
Strand = GTCTCAGA; result = -0.143
Strand = GAATCTAA; result = 0.0273
Strand = GTTAACAA; result = 0.124
Strand = CATTCAAG; result = -0.0267
Strand = AAGGCTTA; result = 0.0799
Strand = CTAGGGAC; result = -0.161
Strand = AGAACCTC; result = -0.167

A few entries again (sample 3):
Strand = CACTACGC; result = 0.12
Strand = ATGGCGTA; result = 0.1
Strand = CAGTAATC; result = -0.218
Strand = GAATTGCA; result = -0.22
Strand = CGGACATA; result = 0.192
Strand = CACTCTCA; result = -0.0653
Strand = CGTAGAAA; result = 0.0134
Strand = CCACTTTA; result = -0.191
Strand = GCAGCCGC; result = 0.205
